Results of several laboratories.
Each numbered part is a random draw from the data of one study; scales do not carry over between parts. Substitutions count along the parent as printed.

Series 1 — method: DHFR PCA, deep sequencing; matrix: yeast; with: (+)-ABA 4.8 µM; relative to: wild-type fitted maximum; direction: higher = stronger binding; measurement: relative binding score
Target: ABI1, truncated, D143A, DHFR fusion (Arabidopsis thaliana)
Notes: methotrexate growth selection, single substitutions
Parent: PYL1, truncated, DHFR fusion (Arabidopsis thaliana); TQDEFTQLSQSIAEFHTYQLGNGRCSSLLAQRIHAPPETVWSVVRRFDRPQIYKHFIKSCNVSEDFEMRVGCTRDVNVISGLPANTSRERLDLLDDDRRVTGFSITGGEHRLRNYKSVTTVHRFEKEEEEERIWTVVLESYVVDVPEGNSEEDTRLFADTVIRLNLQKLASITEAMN
G71L: -6%
D97E: 82.7%
S11N: 53.3%
E174W: -4.67%
V62M: 55.8%
K116E: 10.6%
T160H: 40.8%
N149I: 21.8%
I172Y: 58.5%
G71C: -6.85%
R46K: 49.2%
V76Q: 1.86%
S150P: 10%
I79E: 29.8%

Series 2 — method: RNA Bind-n-Seq; molecule type: RNA; matrix: in vitro; tested at: 365 nM; relative to: no-protein control; direction: higher = stronger binding; measurement: RBNS enrichment (R)
Target: RNA binding protein fox-1 homolog 2, RRM domain, GST-SBP tag (RBFOX2, Homo sapiens, UniProt O43251-10, residues 100-194)
Notes: natural RNA segment, single round, ends assumed
Constant ends, left off below: GGGAGUUCUACAGUCCGACGAUC … UGGAAUUCUCGGGUGCCAA
Target sequence (chain): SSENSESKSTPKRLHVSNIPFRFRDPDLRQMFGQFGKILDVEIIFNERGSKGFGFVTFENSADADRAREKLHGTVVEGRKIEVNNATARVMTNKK
GCUUCGCGCCCUUCUCGGGAGGCAGCUUUUUCGAGCACGAGGGCCGCCCGUUGUGCGAGAACCACUUCCACGCACGACGCGGCUCGCUGUGCGCCACGUGUGGCCUCCCU: 0.312
GGUCAUCUAGUACCUGAUUGGAUAGCUUACAUAUUUAUUGGAUGCUUUGAACAGCUGUAUAUUAGUCCAUAACAUAACUACAAGAUUAGAUAGAGGCAACAUACUGUUAA: 0.689
CUUGUGACUUCUUAAGGCUCUGUAUGAAUUUGGAAGUAUAUGUUGAUAUUGCCAUGCAUGGUCAUUCAUACUUCUAAUACCAGCACCUAUAAGGCUGAGGCAGAAGGUUC: 0.968
UUUAGAUUGUCUCAUCUUGUGACUUUAUAAUGCCUGUCCCCUCCACUGGUCAAUUCAGCAUAUGGAAGUAUAAAUGCAGUCUUUUUACUAGGCAGAUAUAUAUGCUAUCU: 0.735
UGUGCUUUCCUAUGGAAAAAAUACAUAUAUAGUUUAGUUUGUUAGACGUGAGUUAUCCAAGUAUUUAUUUUGUGUAGUGUGUAAGAAUGCUAAAUAAAAUGUUAUACAAG: 0.384
UAGAACUCACUGGCCCAGUGGUGUUCUCACUCCUACCCCACCCACCCCCUGCCUGUCCCCAAAUUGAAGAUCCUUCCUUGCCUGUGGCUUGAUGCGGGGCGGGUAAAGGG: 0.558
GUGUUUUUAAAUGGAAGGGAUUUGUGGCAUCCACUUGCUGAGCGGUGAACAGAGCGAGACGCAGUUAUGUGUGCACCGGCAGAUACUGACACUGAUGGCUGACAGUGUGU: 2.33
CCCUCUGCCGCUGCUUCCAGGCUGGGCAGCACAAGGCCUUGCCUGGCCUGAUGAUGGUGGGUGGGUGGGAUGAGUACCCCCUCAAACCCUGCCCUCCUUAGACCUGAGGG: 0.343
AUCUAUACAAUUAAACAAAUUUAAUGAACCCUAUGAAUUAUUCUUUGAUGUGUUUGUUUUUGUAAGAAAUAUGGAGGAACUGAAUUAUAAAGAAAAUAAAAUCCUUCUGU: 0.83
AGGCCGAGAAGACCUUCUGUUCCUGUAAAUACAGCCAGCAAGUGCAAACUGUGAUUUUAUUUUCCACGUAUUCCUGAGGACGGACUGGACCGUCUAUGUUUUUUCAGCCC: 0.556
CCACUUAUUUGCAUUCUCCUUGUGGAUUUUUUGUCACCUAAGGAAAUGCAUUUGAUGAGUGCUGGAAACUUCUUAAGUGCUUUACAGUUUGUUUUCAUUGUUUGCAGCGG: 0.377
AGCUGGAAGCCUCUGAAAGUUAUUAAAGGACAGAAUCCAAAAGAAUGCCUUUAAUUCUUGUCUGAGAAUCUUGGCCAUGUGUCAGAUUAUCAGAACAAUUUUGUUACCAG: 0.324

Series 3 — target: CCNB1, cyclin fold, Cln2 fusion (human); method: yeast growth competition, sequencing; matrix: yeast; notes: strong parent motif; relative to: not given; direction: higher = stronger binding; measurement: normalised enrichment score
Parent: PKN2 docking peptide (human); VSAVQKLDFSDTM; partner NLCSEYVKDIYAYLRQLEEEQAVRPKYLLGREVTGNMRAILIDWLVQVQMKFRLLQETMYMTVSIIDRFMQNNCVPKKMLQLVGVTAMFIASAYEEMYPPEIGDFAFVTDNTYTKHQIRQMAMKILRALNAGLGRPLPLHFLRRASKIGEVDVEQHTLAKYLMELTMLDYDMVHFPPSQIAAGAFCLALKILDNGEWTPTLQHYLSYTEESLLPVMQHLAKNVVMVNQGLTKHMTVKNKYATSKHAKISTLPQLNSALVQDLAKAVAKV
M13Q: 1.74
K6V: 0.953
D11K: 0.521
D8P: 0.676
M13R: 1.9
F9S: 0.709
V4Q: 0.419
V1F: 2.49
D8H: 1.09
L7P: 0.261
D8A: 0.531
T12F: 1.58
S10Q: 1.35
D8T: 1.34
F9H: -0.608

Series 4 — method: RNA Bind-n-Seq; molecule type: RNA; matrix: in vitro; tested at: not given; relative to: input RNA pool; direction: higher = stronger binding; measurement: bound/input enrichment
Target: RING finger protein unkempt homolog, zinc fingers 1-6, GST-SBP tag (UNK, Homo sapiens, UniProt Q9C0B0, residues 30-357)
Notes: RNA with constant flanks, human and mouse sites, ends assumed
Constant ends, left off below: GGGAGUUCUACAGUCCGACGAUC … CAACAGAGGAUUGAGCAUCA
Target sequence (chain): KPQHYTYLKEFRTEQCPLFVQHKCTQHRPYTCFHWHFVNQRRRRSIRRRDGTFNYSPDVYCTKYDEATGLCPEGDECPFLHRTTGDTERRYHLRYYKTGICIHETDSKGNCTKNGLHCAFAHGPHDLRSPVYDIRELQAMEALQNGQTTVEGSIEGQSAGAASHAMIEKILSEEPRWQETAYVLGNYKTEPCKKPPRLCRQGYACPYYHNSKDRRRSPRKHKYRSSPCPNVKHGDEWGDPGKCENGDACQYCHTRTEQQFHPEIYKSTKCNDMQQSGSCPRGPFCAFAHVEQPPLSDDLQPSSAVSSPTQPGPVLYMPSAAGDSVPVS
UGUCACUGUGGGUAUAUCUUAUGCAUGUCAUUCAAUUGGUCAGAUUGGUUCUGUAUGGUUUUUAGUGGGCAUACAAACUAGUUAGUUCUUUUCACUUAAAUUUUAAAGGAGGAAGUUACC: 1.12 ratio
AGUUGGGAUGAUCAAUGCAGUGCUGUUGAAGUGGGAGAGAAGAAAUGUGGAAACCUGGCUUGUCUGCCAGAUGAGAAGAAUGUUCUUGUUGUAGCCGUCAUGCAUAACUGUGAUAAAAGG: 0.469 ratio
UCAACGGAUCCCUCCCCGCCUCCAUCCUCGUUCUGUGGGAGAGACCAGCCUUCUGGUGCUGCAGUCAGGAAUGGAGCUUGACAGCGCUCUGGAAGCCCCAUCGCAGGAAGACUCUAAUUU: 0.0817 ratio
CCCACUGUCCCAUAUAUAUUCCUUUGUUGUUCUUGAGUGGACCAGGUUACACACUUAAACUUAGGGAGGUAAGACAAGAGUCCCAGUUAAAAUAUCUAUGUCCUAGAGAAGCAUCCACUU: 0.734 ratio
UAACGUUACAUAUCAUAGUGAAUGGUUUCCCCAGUGUAUAUGAAUGUUUUAAGUGUCUCCAAUAGCUUAUGCAGUCUAGGAGCUUUCCAAUACUCAUUUAAUUAAGAUUUAAUCAUUUGC: 1.22 ratio
UACGAAUUGUUAAAAUGGAAUGCAAGUUUUUCAAAAGCCCAGGUCUAAAUGUAAUGGUUGGUUUAUUGUUCUAUAACCCCAGCCCAUCAUUUUCUGUGUAAAUCAUAAACAAUAAACAGA: 0.181 ratio
GAGAGUGAUGAAGAGGGGCAUUCCCCGGUCCUGGGCGGCCUUGGGCCGCCUUUUGCCUUCAAUUUGAACAGUGACACAGAUGUGGAAGAAGGUCAGCAACCAGCCACAGAGGAGGCCUCC: 0.348 ratio
AUGGGGUGGGAGGGGGAAAAAGGCCGACAACACUCGACCGCUUGUUUUGUGCCAAAUGCUUUUAGAUAAGGACAUAAUGUUUUUGACUGAUGUAAAUACUAACUCUAGAAUAGGCAGGAU: 1.06 ratio
GUCAUUGAUGUCCUUCAUCCUGGGAAGGCAACAGUACCAAAGACAGAAAUUCGGGAAAAGCUGGCCAAAAUGUACAAAACCACACCAGAUGUCAUCUUUGUAUUUGGAUUCAGAACCCAC: 0.109 ratio
GCAGUUAUAUGUGGAAACACUGGUAAUUCUUUCCACAGUGUUGUUUUGGAUAAUCUGUUCUAGUAUAUUUAACUAAUUGUAUGGUGGACCUGUACUCUGAUACACAUCGAAUCAGUCAAU: 2.66 ratio
UUCUCUGAGGCCCGUGAGGACAUGGCUGCCCUAGAGAAGGAUUAUGAGGAGGUUGGUGUGGAUUCUGUGGAAGGCGAGGGGGAGGAAGAAGGAGAGGAAUACUAAAUUAAAUGUCACAAG: 0.598 ratio

Series 5 — method: protein binding microarray; molecule type: double-stranded DNA, one strand shown; matrix: in vitro; tested at: not given; relative to: not given; direction: higher = stronger binding; measurement: E-score
Target: Histone acetyltransferase KAT6A, winged helix 2, GST fusion (KAT6A, Homo sapiens, UniProt Q92794, residues 85-181)
Notes: 8-mer, flanks averaged, mean of 2 arrays, mostly near background
Construct (chain): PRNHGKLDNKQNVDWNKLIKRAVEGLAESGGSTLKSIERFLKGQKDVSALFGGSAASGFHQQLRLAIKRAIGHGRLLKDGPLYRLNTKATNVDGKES
GCCGTCGC: 0.101
AGCATCAG: -0.0137
CTGCCCGA: 0.177
ATGCGGTG: 0.0475
CGGGCATC: -0.0241
ACTAACGG: 0.0182
CGACCGCC: 0.091
CCCTGGGC: 0.089
GGTTATTA: -0.197
CGTTCAAC: 0.081
ATAAAGAT: 0.16
TATCAGGA: 0.15
ATCTCAAC: -0.0454
TAATTCCA: 0.0719
AGTCCACC: -0.022
GGAGTCCA: -0.0258
CTCGTGGA: -0.104
CGCGAATC: 0.0649
AGCTGTTA: -0.143
CCCAAGAC: -0.0047
CCGTATCG: -0.172
CTACGAAA: -0.15
AAAACCCC: -0.159
ATCTTATC: -0.0212
CTACCGTC: -0.0141

Other studies, line by line
PhoQ, residues 284 288 289 292 302 303 NLGVHL
fold induction (PhoP, residues 12 14 15 18 19 NMSFL (Escherichia coli, UniProt P23836); Sort-seq, measured: YFP reporter; E. coli; PhoQ-PhoP variant library, with: 10 µM Mg2+; relative to: high Mg2+ state, higher = stronger signaling): 4

A few entries again (series 3):
M13Q: 1.74
D8T: 1.34
T12F: 1.58
S10Q: 1.35
D8P: 0.676
V1F: 2.49
